Measurements collected from several papers.
Protocols differ between the studies behind these lines. Numbers after ± are the reported error.

O=C(O)CCCOc1ccc([18F])cc1-c1cc(-c2ccccc2C(F)(F)F)n(-c2ccccc2)n1
tissue uptake (mouse, large intestine; intravenous, dose not given, 15 min): 0.56 ± 0.08 %ID/g

CCCC[C@H](NC(=O)CNC(=O)CNC(=O)[C@H](CCCCNC(=O)[C@H](CC(=O)O)NC(=O)C(C)c1ccc(CC(C)C)cc1)NC(=O)CN1CCN(CC(=O)O)CCN(CC(=O)O)CCN(CC(=O)O)CC1)C(=O)N[C@H]1CC(=O)NCCCC[C@@H](C(N)=O)NC(=O)[C@H](Cc2c[nH]c3ccccc23)NC(=O)[C@H](CCCNC(=N)N)NC(=O)[C@@H](Cc2ccccc2)NC(=O)[C@H](Cc2c[nH]cn2)NC1=O (some centres unmarked) [lutetium-177 labelled]
tissue uptake (C57 mouse, pancreas; intravenous, 2 h, together with: 10 µg NDP-MSH co-injection): 0.23 ± 0.07 %ID/g

COc1cccc(OC)c1-c1cc(C(=O)NC2(C(=O)O)C3CC4CC(C3)CC2C4)nn1-c1ccc(C(=O)N(C)CCCN(C)CCCN(C)C(=O)[C@H](CCCCNC(=O)[C@H](CC(C)C)NC(=O)C2OC2C(=O)O)NC(=O)CN2CCN(CC(=O)[O-])CCN(CC(=O)[O-])CCN(CC(=O)[O-])CC2)cc1C(C)C.[177Lu+3] (mixture of isomers)
tissue uptake (mouse, HT-29 xenograft, spleen; 168 h post injection): 0.57 %ID/g

CCCC[C@H](NC(=O)COCCOCCNC(=O)CN1CCN(CC(=O)O)CCN(CC(=O)O)CC1)C(=O)N[C@H]1CC(=O)NCCCC[C@@H](C(N)=O)NC(=O)[C@H](Cc2c[nH]c3ccccc23)NC(=O)[C@H](CCCNC(=N)N)NC(=O)[C@@H](Cc2ccccc2)NC(=O)[C@H](Cc2c[nH]cn2)NC1=O [fluorine-18 labelled]
tissue uptake (C57 mice B16-F10 melanoma, brain; intravenous, 0.37 MBq, 1 h): 0.07 ± 0.02 %ID/g

O=C(NCC1OC2CCC=CCCC2O1)c1ccc([18F])nc1 (centres unmarked)
tissue uptake (healthy female BALB/c nude mice, skin; intravenous, 7.4 MBq per mouse, 60 min): 1.3 ± 0.3 %ID/g

COc1cccc(OC)c1-c1cc(C(=O)NC2(C(=O)O)C3CC4CC(C3)CC2C4)nn1-c1ccc(C(=O)N(C)CCCN(C)C(=O)[C@H](CCCCNC(=O)[C@H](CC(C)C)NC(=O)C2OC2C(=O)O)NC(=O)CN2CCN(CC(=O)[O-])CCN(CC(=O)[O-])CCN(CC(=O)[O-])CC2)cc1C(C)C.[177Lu+3] (mixture of isomers)
tissue uptake (mouse HT-29 xenograft, small intestine; 72 h post injection, biodistribution): 0.109 %ID/g

CC(C)C[C@H](NC(=O)[C@@H](CCCCNC(=O)[C@@H](Cc1ccccc1)NC(=O)CCCCCCCNC(=O)CN1CCN(CC(=O)O)CCN(CC(=O)O)CCN(CC(=O)O)CC1)NC(=O)[C@H](Cc1ccc(O)cc1)NC(=O)[C@H](CO)NC(=O)[C@H](Cc1c[nH]c2ccccc12)NC(=O)[C@H](Cc1c[nH]cn1)NC(=O)[C@@H]1CCC(=O)N1)C(=O)N[C@@H](CCCNC(=N)N)C(=O)N1CCC[C@H]1C(=O)NCC(N)=O [indium-111 labelled]
tissue uptake (male athymic nude mice, DU-145 prostate cancer xenograft, blood; intravenous, 0.037 MBq, 4 h): 0.07 ± 0.05 %ID/g

[123I]c1ccc2nc(-c3ccc(-n4ccnn4)nc3)cn2c1
tissue uptake (male Wistar rat, small intestine; intravenous, 4 MBq, 14 h): 0.064 ± 0.01 %ID/g

For quick reference, copied from above:
O=C(NCC1OC2CCC=CCCC2O1)c1ccc([18F])nc1 (centres unmarked)
tissue uptake (healthy female BALB/c nude mice, skin; intravenous, 7.4 MBq per mouse, 60 min): 1.3 ± 0.3 %ID/g
